Results pooled from the literature.
A part holds a random share of what one study measured.

Block 1
Target: Histone acetyltransferase KAT6A, winged helix 1, GST fusion (KAT6A, Homo sapiens, UniProt Q92794, residues 1-85)
Method: protein binding microarray
Form: double-stranded DNA, one strand shown
Matrix: in vitro
Tested at: not given
Setting: 8-mer, flanks averaged, mean of 2 arrays, mostly near background
Baseline: not given
Reading: higher = stronger binding
Construct (chain): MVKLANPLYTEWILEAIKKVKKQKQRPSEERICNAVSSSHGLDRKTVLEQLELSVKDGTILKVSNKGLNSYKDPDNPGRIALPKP
| Sequence | E-score |
| --- | --- |
| GACGTCTA | -0.0587 |
| CAGTATCG | 0.0479 |
| TCCCTTCA | -0.222 |
| ATCAGCTA | -0.166 |
| ACGGACGC | 0.26 |
| GGCAACAA | -0.0926 |
| CATCCACG | 0.0159 |
| AGGACCTC | -0.00782 |
| AAGTAAAA | -0.259 |
| AGGCCTCG | -0.0353 |
| GGCCACAA | -0.0976 |
| GTTGATAA | -0.111 |
| CTGGGTTC | -0.0969 |
| GATACATA | -0.0548 |
| ATACGGCA | 0.297 |
| CAAAAAGG | -0.0668 |
| CTTACTTA | -0.138 |
| GATCCCTA | -0.0792 |
| GCTGACTA | 0.0564 |
| AAAGATTC | -0.241 |
| TAGGCGAA | -0.027 |
| GATTCCCA | -0.25 |
| AACCGGCG | 0.399 |
| CCTCGAAA | -0.106 |
| CCGGCTCA | 0.0534 |

Block 2
Target: Sal-like protein 4, full length isoform B (SALL4, Homo sapiens, UniProt Q9UJQ4-2, residues 1-616)
Method: universal PBM
Form: double-stranded DNA, one strand shown
Matrix: in vitro
Tested at: not given
Setting: 8-mer, flanks averaged, mean of replicates
Reading: higher = stronger binding
Construct (chain): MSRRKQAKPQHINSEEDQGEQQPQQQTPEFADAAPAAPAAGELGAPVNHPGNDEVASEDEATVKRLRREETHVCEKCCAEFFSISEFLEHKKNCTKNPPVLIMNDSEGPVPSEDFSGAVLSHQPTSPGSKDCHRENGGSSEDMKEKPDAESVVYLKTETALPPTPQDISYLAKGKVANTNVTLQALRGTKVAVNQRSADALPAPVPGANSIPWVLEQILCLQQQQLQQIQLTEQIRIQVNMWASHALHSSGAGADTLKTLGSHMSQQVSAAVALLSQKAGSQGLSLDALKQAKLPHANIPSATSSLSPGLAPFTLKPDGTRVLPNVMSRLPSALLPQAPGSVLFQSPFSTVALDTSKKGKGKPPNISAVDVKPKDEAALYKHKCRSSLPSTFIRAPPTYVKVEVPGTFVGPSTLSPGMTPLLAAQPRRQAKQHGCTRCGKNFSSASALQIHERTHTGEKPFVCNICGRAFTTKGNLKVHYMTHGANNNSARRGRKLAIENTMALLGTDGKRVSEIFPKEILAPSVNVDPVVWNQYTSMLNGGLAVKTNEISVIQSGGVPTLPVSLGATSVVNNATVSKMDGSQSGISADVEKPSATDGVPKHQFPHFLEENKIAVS
| Sequence | E-score |
| --- | --- |
| CATCTTCG | -0.0775 |
| AAGTAGAA | 0.182 |
| CGCTACAG | -0.0808 |
| CAGACATC | 0.0591 |
| AATGGCGA | 0.125 |
| GGGAGAAA | -0.0158 |
| CCGAATCG | -0.147 |
| GAGGTCCA | -0.178 |
| CACCGACG | -0.227 |
| ACGATAGC | 0.0644 |
| CGCAAGCC | -0.292 |
| GACTCGAC | -0.139 |
| CGCAACAA | 0.0482 |
| GCTGGTCA | -0.135 |
| ACTGGGGC | -0.187 |
| CGTCGGAC | -0.229 |
| AAGACACA | 0.0318 |
| ACGAGGTA | -0.018 |
| AAGCAACC | -0.137 |
| AAAACTGT | 0.214 |
| GTGGCCCA | -0.277 |
| ACGAATCG | -0.0659 |
| ACAATTTC | 0.247 |
| CCTAATCG | -0.0317 |
| AGAGGGAC | -0.233 |

Block 3
Target: Hepatocyte nuclear factor 3-beta, forkhead domain (FOXA2, Homo sapiens, UniProt Q9Y261, residues 142-269)
Method: protein-binding microarray
Form: double-stranded DNA, one strand shown
Matrix: in vitro
Tested at: not given
Setting: k-mer, scored over probes, only values ≥0.25
Reading: higher = stronger binding
Target sequence (chain): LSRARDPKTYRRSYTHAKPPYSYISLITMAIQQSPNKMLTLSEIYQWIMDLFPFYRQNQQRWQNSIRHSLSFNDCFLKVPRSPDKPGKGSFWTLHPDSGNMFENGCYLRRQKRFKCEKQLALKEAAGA
| Sequence | E-score |
| --- | --- |
| AATACGAA | 0.306 |
| ATATAGAT | 0.344 |
| ATATTTGG | 0.273 |
| AAAAATAT | 0.305 |
| CACAAGTA | 0.275 |
| TATTTGAA | 0.286 |
| TACACAAA | 0.388 |
| ACCACACA | 0.254 |
| TAATGACA | 0.345 |
| CATATTAA | 0.403 |
| ATACAAAC | 0.38 |
| ACATGACA | 0.304 |
| ACAGTGTA | 0.277 |
| TAAGTACA | 0.278 |
| TATACACA | 0.38 |
| TGTGGTAA | 0.307 |
| AAATGTGT | 0.272 |
| AGACAGAT | 0.259 |
| ACATGGTA | 0.255 |
| ATACGACA | 0.256 |
| GTGTGTTA | 0.326 |
| GTATTACA | 0.265 |
| AACACACT | 0.283 |
| ATAAACAG | 0.301 |
| ATATTAGA | 0.34 |

Block 4
Target: Interferon regulatory factor 7, full length, phosphomimetic (IRF7, Homo sapiens, UniProt Q92985, residues 1-503, S471D/S472D/S475D/S476D/S477D/S483D/S484D/S487D)
Chain of UniProt Q92985 (whole entry, unmodified, looked up): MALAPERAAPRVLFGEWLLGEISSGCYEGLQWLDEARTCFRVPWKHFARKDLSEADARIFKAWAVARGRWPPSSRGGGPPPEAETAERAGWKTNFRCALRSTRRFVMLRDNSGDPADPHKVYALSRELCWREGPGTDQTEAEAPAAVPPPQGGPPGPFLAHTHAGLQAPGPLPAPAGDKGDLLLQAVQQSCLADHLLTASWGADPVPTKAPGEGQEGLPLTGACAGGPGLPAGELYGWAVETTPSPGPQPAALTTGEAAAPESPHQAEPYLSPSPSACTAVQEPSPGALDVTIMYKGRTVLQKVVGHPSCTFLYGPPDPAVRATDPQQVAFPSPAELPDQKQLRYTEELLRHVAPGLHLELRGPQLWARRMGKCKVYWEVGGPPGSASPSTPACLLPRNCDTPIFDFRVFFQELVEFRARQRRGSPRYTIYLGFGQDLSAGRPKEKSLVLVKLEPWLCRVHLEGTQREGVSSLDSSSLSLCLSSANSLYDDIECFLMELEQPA
Method: protein-binding microarray
Form: double-stranded DNA, one strand shown
Matrix: in vitro
Tested at: 2200 nM top
Setting: 60-bp whole probe
With: salmon DNA 0.4 mg/ml
Baseline: random background probes
Reading: higher = stronger binding
Constant ends, left off below: GCCTAGCAC … GTCTTGATTCGCTTGACGCTGCTG
| Sequence | fitted relative affinity |
| --- | --- |
| TCCTGTATGGATGTGTTTTAGTGCTAG | 0.788 z-score |
| TTATGTTTCGGTATCGGTTAGTGCTAG | 6.59 z-score |
| TTAGAACTGGGGTGTCGATTAGTGCTA | -0.222 z-score |
| GACGTTTTCGACACTGGGGACGTGCTA | 2.69 z-score |
| GACCGACTGGACTTTCGGGACGTGCTA | 2.4 z-score |
| TTAGAACTGAGGTATCGATTAGTGCTA | -0.839 z-score |
| GACGGACCGCTACTGCTGACGTGCTAG | -0.303 z-score |
| TCATATTTGTTTCCATTACTGTGCTAG | 2.67 z-score |
| GACGGTTTCGACACTTGGGACGTGCTA | 2.44 z-score |
| CTTGCTCTGTGCATAGGTCTGTGCTAG | 0.363 z-score |
| TCATGTCTGGAGTCTCTGACTGTGCTA | 0.482 z-score |
| TCAACTCTTCTTTTTTTACTGTGCTAG | 1.04 z-score |
| TTAGGAGTGGGTATCGGTTAGTGCTAG | -0.0451 z-score |
| CTAGGACTGGGGTTTCGGTTAGTGCTA | 1.94 z-score |
| AAAACTCTTTATTTAAGCTCGTGCTAG | -0.566 z-score |
| TCATATATATATTGTTAGACTGTGCTA | 0.584 z-score |
| TTAGATTTCGGGTTTCGATAAGTGCTA | 4.8 z-score |
| TGAAATTTTAGTAACACAGAGTGCTAG | -0.709 z-score |
| TTAGAAATCGGGTATCGATTAGTGCTA | -0.173 z-score |
| AACCGCCTCTCCCTTAGACGGTGCTAG | 1.03 z-score |
| GACGGTCTCGGTTTCGGAACGTGCTAG | 4.21 z-score |
| GACGATATCAGACTGTAGACGTGCTAG | 0.144 z-score |
| CAAACACTGGTTTTTACTTTGTGCTAG | 1.05 z-score |
| TTAGGTTTCGGTATTGGTTAGTGCTAG | 6.54 z-score |
| TCATTTTCGTTTTTATTACTGTGCTAG | 11.7 z-score |

Block 5
Target: TAR DNA-binding protein 43, full length, His tag (TARDBP, Homo sapiens, UniProt Q13148, residues 1-414)
Method: RNA Bind-n-Seq
Form: RNA
Matrix: in vitro
Tested at: 20 nM
Setting: 6-mer, flanks averaged, single round
With: 150 mM LiCl
Baseline: input library
Reading: higher = stronger binding
| Sequence | 6-mer enrichment (R) |
| --- | --- |
| UUCCCU | 1.07 |
| AACCAC | 0.862 |
| GAUCGU | 1.06 |
| UUAGAU | 0.902 |
| UAAUAG | 0.956 |
| UUCGUG | 1.03 |
| UCCCGG | 0.931 |
| CGCGAG | 0.947 |
| CUGUUC | 0.923 |
| CAAGUG | 1.02 |
| UAUGAC | 0.899 |
| GAAUCA | 0.832 |
| GAUUGG | 1.08 |
| GCUAGG | 1.02 |
| GUACUA | 0.846 |
| UUGGAC | 0.995 |
| UUGUGG | 1.38 |
| AGUUGA | 0.983 |
| CAAGAG | 0.908 |
| AUUCAC | 0.87 |

A few entries again (block 2):
| Sequence | E-score |
| --- | --- |
| ACTGGGGC | -0.187 |
| CGTCGGAC | -0.229 |
| AAGACACA | 0.0318 |
| ACGAGGTA | -0.018 |
| AAGCAACC | -0.137 |
| AAAACTGT | 0.214 |
